Assay results of several laboratories.
Lines come from different studies, so protocols differ. Several values in a cell are separate wells, animals, samples, runs or records. ± gives the spread as reported.

CCOC(=O)c1c(NC(=O)CNC(C)C)sc2c1CCCCC2
brain AUC(0-3 h) (mouse, brain; intraperitoneal, 100 mg/kg): 21200 ng·h/g

Cc1coc([C@H]2C[C@H]3[C@@H](CF)SC(N)=N[C@@]3(c3ccc(F)cc3F)CO2)n1
brain concentration (male 129/SVE mouse, brain; subcutaneous, 80 mg/kg, 7 h): 0.036 µM

CC(C)[C@@H](CS(=O)(=O)C(C)C)N1C(=O)[C@@](C)(CC(=O)O)C[C@H](c2cccc(Cl)c2)[C@H]1c1ccc(Cl)cc1
brain distribution advantage (FVB mouse, Abcb1a/b and Abcg2 knockout, brain; intravenous, 20 mg/kg, unit not given; reference: knockout Kp over wild-type Kp): 40.5

O=S(=O)(c1ccc(-c2ccc3nccc(Nc4ccncn4)c3c2)cc1)N1CCOCC1
brain concentration (female BALB/c mouse, brain; intraperitoneal, 10 mg/kg, 0.25 h): 185 ng/g and 150 ng/g

COc1cc2c(Nc3ccc(Cl)c(Cl)c3F)ncnc2cc1OC[C@@H]1C[C@@H]2CN(C)C[C@@H]2C1
brain concentration (FVB Mdr1a/b(-/-) Bcrp1(-/-) mouse; oral, 70 mg/kg, 2 h): 10000 ng/g

Cc1cc([C@H]2C[C@H]3[C@@H](C)SC(N)=N[C@@]3(c3ccc(F)cc3F)CO2)on1
brain concentration (male 129/SVE mouse, brain; subcutaneous, 50 mg/kg, 3 h): 6.62 µM

CN1C(=O)c2ccccc2[S@+]([O-])c2ccc(C(=O)NCCc3cccs3)cc21
brain concentration (C57BL/6 mouse, male, brain; intraperitoneal, 30 mg/kg, single dose, 4 h, quantification limit 1 ng/mL): not detected

Cn1ncnc1[C@H]1c2n[nH]c(=O)c3cc(F)cc(c23)N[C@@H]1c1ccc(F)cc1
brain concentration (FVB mouse Mdr1a/b-/-, brain; oral, 0.15 mg/kg, 2 h, single dose): 17.2 ± 2.1 ng/g

Excerpt of the above:
Cn1ncnc1[C@H]1c2n[nH]c(=O)c3cc(F)cc(c23)N[C@@H]1c1ccc(F)cc1
brain concentration (FVB mouse Mdr1a/b-/-, brain; oral, 0.15 mg/kg, 2 h, single dose): 17.2 ± 2.1 ng/g
